{"data": "Results collected from several papers", "note": "Protocols differ between the studies behind these lines. ± gives the spread as reported."}
{"Substance": "CN[C@H]1CN(c2ccc3c(=O)c(C(=O)O)cn(-c4nccs4)c3n2)C[C@@H]1OC", "test system": "human patients, plasma", "conditions": "intravenous, 9 to 50 mg/m^2 twice weekly, day 4, cycle 1, mean, noncompartmental", "endpoint": "mean residence time", "value": "34.4 h"}
{"Substance": "CS/C(S)=N/CCCC[S+](C)[O-] (racemic)", "test": "RT-PCR", "test system": "rat, mammary gland", "conditions": "oral gavage, 200 mg/kg, four days, unit not given", "how to read": "relative to: vehicle", "endpoint": "mRNA level", "value": 2.34}
{"Substance": "CCCC[C@@H]1NC(=O)[C@@H](NC(=O)[C@H](CCC(=O)O)NC(=O)CNC(=O)CN2CCN(CC(=O)O)CCN(CC(=O)O)CCN(CC(=O)O)CC2)CCCCNC(=O)C[C@@H](C(N)=O)NC(=O)[C@H](C(C)C)NC(=O)[C@@H]2CCCN2C(=O)[C@H](CCCNC(=N)N)NC(=O)CNC(=O)[C@H](Cc2c[nH]c3ccccc23)NC(=O)[C@H](CCCNC(=N)N)NC(=O)[C@@H](Cc2ccccc2)NC(=O)[C@H](Cc2c[nH]cn2)NC(=O)[C@H](CCC(=O)O)NC1=O [indium-111 labelled]", "test system": "C57 mice, B16F10 lung metastasis, urine", "conditions": "intravenous, 0.037 MBq, 2 h", "endpoint": "urinary excretion", "value": "84.1 ± 2.32%"}
{"Substance": "CC(C)(O)CNc1nc(Nc2ccnc(C(F)(F)F)c2)nc(-c2cccc(C(F)(F)F)n2)n1", "test system": "human patients", "conditions": "oral, 100 mg once daily, cycle 1 days 14 and 21, with: induction chemotherapy", "endpoint": "mean Cmax", "value": "8.82 µg/mL"}
{"Substance": "CS(=O)(=O)OCCCCOS(C)(=O)=O", "test": "cytochrome c release, ELISA", "test system": "BALB/cByJ female mouse liver mitochondria", "conditions": "30 min", "how to read": "relative to: alamethicin maximal release", "endpoint": "EC20", "value": "> 400 µM"}
{"Substance": "Cn1cnc2c(F)c(Nc3ccc(Br)cc3Cl)c(C(=O)NOCCO)cc21", "test system": "ESRD on hemodialysis, plasma", "conditions": "oral, 50 mg single dose, dosed 1 h before dialysis", "endpoint": "AUC", "value": "1.56 µg·h/mL"}
{"Substance": "CCc1oc2ccccc2c1C(=O)c1cc(Br)c(O)c(Br)c1", "test": "metabolic stability", "test system": "Sprague-Dawley rat, liver microsomes", "conditions": "1 µM, pH 7.4", "endpoint": "microsomal CLint", "value": "43 µL/min/mg"}
{"Substance": "Cn1c(Cn2ccc(C(F)(F)F)c(Oc3cc(Cl)cc(C#N)c3)c2=O)n[nH]c1=O", "test system": "human, plasma", "conditions": "oral, 100 mg once daily, 24 h, geometric mean, with: islatravir 2.25 mg once daily", "endpoint": "concentration at 24 h", "value": "0.866 µM"}
{"Substance": "CCCCN1CCCCC1C(=O)Nc1c(C)cccc1C (stereo not shown)", "test": "mitochondrial swelling", "test system": "BALB/cByJ female mouse liver mitochondria", "conditions": "30 min, with: succinate + rotenone", "how to read": "relative to: CaCl2 maximal swelling", "endpoint": "EC20", "value": "> 800 µM"}
{"Substance": "[2H]C([2H])([2H])Oc1cc2c(cc1OC([2H])([2H])[2H])C1CC(=O)C(CC(C)C)CN1CC2 (stereo not shown)", "test": "measured: deuterated total (α+β)-HTBZ", "test system": "healthy human volunteers, plasma", "conditions": "oral, 24 mg single dose, standard meal", "endpoint": "dose-normalized AUC(0-inf)", "value": "22.7 ng·h/mL"}
{"Substance": "COc1cccc(N2CCN(C3=Nc4c(F)cccc4[C@H](CC(=O)O)N3c3cc(C(F)(F)F)ccc3OC)CC2)c1", "test": "UHPLC-MS/MS", "test system": "healthy women, plasma", "conditions": "intravenous infusion, 720 mg single dose, 60 min infusion, HPβCD formulation", "endpoint": "MRT", "value": "6.72 ± 1.07 h"}
{"Substance": "O=C(/C=C/c1ccc(O)c(O)c1)O[C@@H]1C[C@](O)(C(=O)O)C[C@@H](O)[C@H]1O", "test system": "human, fasted baseline, cerebrospinal fluid", "endpoint": "mean concentration", "value": "0.0032 µM"}
{"Substance": "Cc1cc(Nc2ccc(C(=O)N/N=C/c3scnc3C)cc2)c2cccc(O)c2n1", "test system": "female Sprague-Dawley rat, plasma", "conditions": "oral, 20 mg/kg", "endpoint": "bioavailability", "value": "~6.91%"}
{"Substance": "O=P(O)(O)C(Cl)(Cl)P(=O)(O)O", "test": "mitochondrial swelling", "test system": "BALB/cByJ female mouse liver mitochondria", "conditions": "30 min, with: succinate + rotenone", "how to read": "relative to: CaCl2 maximal swelling", "endpoint": "EC20", "value": "> 400 µM"}
{"Substance": "colistin methanesulfonate", "test": "one-compartment PK model", "test system": "rat", "conditions": "i.p., 20 mg/kg colistin base activity", "endpoint": "absorption rate constant", "value": "0.878 ± 0.342 h⁻¹"}
{"Substance": "Cn1c(-c2ccc(C(N)=O)cc2F)nnc1C(C)(C)Oc1c(F)cc(Cl)cc1F", "test system": "healthy young Japanese subjects, plasma", "conditions": "oral, 20 mg once daily, day 18, 14 days dosing", "endpoint": "AUC(0-tau) range", "value": "1.48 to 4.48 µg·h/mL"}
{"note": "Excerpt of the above:"}
{"Substance": "CS(=O)(=O)OCCCCOS(C)(=O)=O", "test": "cytochrome c release, ELISA", "test system": "BALB/cByJ female mouse liver mitochondria", "conditions": "30 min", "how to read": "relative to: alamethicin maximal release", "endpoint": "EC20", "value": "> 400 µM"}
{"Substance": "colistin methanesulfonate", "test": "one-compartment PK model", "test system": "rat", "conditions": "i.p., 20 mg/kg colistin base activity", "endpoint": "absorption rate constant", "value": "0.878 ± 0.342 h⁻¹"}
